Assay results pooled from the literature.
Every numbered part comes from another study and shows a few of its results, in no order.
Sequence of UniProt P51812 (whole entry, looked up): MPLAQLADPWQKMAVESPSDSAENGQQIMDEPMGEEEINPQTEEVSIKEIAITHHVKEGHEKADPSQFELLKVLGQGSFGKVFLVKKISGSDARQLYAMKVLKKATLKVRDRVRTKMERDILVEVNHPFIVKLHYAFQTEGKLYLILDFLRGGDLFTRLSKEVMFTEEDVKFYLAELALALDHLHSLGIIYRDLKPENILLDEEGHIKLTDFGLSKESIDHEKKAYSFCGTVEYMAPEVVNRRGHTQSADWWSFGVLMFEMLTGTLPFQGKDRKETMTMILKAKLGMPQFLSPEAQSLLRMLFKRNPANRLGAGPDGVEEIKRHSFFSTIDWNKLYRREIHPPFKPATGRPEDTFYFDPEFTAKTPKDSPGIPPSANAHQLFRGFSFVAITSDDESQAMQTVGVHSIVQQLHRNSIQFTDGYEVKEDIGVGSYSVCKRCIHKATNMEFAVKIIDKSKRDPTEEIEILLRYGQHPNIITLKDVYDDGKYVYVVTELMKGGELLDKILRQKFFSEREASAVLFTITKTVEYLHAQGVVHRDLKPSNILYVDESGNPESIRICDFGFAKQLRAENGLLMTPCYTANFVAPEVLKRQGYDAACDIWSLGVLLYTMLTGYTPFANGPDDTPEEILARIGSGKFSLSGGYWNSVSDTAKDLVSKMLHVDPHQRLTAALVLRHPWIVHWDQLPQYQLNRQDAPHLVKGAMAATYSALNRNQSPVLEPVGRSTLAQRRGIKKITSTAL
Sequence of UniProt P48730 (whole entry, looked up): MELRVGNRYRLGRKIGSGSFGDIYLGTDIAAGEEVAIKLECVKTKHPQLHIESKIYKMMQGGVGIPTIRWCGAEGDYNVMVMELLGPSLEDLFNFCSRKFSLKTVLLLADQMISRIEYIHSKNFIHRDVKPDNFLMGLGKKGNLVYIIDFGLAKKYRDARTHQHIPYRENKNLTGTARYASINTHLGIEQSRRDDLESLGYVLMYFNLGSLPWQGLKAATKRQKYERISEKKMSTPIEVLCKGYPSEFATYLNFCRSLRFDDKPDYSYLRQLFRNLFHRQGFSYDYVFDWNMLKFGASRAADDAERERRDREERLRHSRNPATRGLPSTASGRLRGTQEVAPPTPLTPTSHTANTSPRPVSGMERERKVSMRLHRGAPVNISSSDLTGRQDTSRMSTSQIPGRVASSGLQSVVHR
Sequence of UniProt Q06418 (whole entry, looked up): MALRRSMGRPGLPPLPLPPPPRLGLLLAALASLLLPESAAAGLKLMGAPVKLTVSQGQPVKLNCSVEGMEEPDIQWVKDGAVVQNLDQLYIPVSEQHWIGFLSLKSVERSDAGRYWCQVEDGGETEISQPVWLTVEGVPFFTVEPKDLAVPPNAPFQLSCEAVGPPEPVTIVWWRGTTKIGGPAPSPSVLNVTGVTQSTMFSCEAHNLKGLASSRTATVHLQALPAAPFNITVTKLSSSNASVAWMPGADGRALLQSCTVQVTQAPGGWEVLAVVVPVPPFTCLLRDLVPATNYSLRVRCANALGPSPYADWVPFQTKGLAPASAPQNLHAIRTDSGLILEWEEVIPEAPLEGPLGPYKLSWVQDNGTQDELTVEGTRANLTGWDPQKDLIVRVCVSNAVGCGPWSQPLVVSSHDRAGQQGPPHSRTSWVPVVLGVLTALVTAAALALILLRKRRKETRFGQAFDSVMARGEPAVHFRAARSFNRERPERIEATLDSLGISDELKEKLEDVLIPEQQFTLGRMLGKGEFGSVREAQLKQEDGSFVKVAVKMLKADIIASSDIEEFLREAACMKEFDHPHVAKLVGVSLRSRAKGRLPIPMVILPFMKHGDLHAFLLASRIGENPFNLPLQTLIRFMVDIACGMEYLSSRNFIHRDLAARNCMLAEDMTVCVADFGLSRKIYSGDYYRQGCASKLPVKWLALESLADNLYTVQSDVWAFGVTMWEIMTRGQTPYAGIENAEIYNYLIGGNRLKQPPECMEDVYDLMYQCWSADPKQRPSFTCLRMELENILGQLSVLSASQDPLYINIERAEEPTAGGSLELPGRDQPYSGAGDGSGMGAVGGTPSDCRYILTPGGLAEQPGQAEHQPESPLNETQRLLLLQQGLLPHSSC
Sequence of UniProt Q13153 (whole entry, looked up): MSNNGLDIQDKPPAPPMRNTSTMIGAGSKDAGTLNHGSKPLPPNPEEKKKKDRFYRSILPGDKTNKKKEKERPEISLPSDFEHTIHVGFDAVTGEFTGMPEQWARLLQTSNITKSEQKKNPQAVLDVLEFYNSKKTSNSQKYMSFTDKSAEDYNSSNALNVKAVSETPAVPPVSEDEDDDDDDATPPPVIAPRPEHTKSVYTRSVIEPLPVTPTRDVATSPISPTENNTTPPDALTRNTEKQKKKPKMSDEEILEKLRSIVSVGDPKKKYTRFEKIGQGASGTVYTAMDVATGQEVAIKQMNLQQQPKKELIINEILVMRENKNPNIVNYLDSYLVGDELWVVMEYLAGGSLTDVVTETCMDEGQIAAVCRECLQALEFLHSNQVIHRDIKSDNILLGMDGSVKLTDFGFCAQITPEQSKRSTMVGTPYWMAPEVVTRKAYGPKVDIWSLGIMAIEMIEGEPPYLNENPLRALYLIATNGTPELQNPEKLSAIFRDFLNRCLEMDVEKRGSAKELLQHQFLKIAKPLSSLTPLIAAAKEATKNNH
Sequence of UniProt P08069 (whole entry, looked up): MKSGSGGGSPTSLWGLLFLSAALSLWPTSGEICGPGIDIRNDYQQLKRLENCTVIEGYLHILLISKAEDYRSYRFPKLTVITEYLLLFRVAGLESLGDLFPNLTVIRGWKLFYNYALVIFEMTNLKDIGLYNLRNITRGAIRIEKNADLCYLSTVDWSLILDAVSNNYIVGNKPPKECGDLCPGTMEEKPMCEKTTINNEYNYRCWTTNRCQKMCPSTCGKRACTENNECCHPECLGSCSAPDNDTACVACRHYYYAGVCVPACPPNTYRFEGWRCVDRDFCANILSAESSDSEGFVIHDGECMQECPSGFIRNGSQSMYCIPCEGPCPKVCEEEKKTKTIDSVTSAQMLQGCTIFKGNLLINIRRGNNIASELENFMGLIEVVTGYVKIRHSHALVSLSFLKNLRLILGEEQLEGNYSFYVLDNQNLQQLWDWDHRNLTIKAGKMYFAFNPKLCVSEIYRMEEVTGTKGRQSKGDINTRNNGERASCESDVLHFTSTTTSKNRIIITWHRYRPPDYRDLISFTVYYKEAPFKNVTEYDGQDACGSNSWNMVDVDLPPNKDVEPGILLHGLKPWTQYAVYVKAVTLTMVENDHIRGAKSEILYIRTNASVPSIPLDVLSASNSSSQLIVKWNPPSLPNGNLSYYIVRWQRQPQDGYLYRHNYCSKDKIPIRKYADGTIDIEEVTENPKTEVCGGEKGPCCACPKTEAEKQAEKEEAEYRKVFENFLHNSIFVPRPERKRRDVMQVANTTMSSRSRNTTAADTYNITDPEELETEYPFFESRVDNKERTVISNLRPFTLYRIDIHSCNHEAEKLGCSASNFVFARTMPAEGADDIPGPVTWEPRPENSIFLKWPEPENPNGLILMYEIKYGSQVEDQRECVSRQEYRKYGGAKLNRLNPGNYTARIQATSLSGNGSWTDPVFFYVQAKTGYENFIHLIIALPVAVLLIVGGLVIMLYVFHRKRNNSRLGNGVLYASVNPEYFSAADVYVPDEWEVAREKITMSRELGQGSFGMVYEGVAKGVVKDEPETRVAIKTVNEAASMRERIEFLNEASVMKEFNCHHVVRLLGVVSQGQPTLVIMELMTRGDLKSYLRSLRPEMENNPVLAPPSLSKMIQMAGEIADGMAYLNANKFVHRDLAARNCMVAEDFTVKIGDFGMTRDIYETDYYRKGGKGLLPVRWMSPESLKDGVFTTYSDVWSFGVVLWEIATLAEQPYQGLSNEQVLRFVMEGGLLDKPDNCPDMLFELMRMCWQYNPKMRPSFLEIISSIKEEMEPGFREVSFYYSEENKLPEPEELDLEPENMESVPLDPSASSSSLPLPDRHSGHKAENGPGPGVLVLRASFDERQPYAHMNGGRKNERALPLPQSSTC
Sequence of UniProt Q8N5S9 (whole entry, looked up): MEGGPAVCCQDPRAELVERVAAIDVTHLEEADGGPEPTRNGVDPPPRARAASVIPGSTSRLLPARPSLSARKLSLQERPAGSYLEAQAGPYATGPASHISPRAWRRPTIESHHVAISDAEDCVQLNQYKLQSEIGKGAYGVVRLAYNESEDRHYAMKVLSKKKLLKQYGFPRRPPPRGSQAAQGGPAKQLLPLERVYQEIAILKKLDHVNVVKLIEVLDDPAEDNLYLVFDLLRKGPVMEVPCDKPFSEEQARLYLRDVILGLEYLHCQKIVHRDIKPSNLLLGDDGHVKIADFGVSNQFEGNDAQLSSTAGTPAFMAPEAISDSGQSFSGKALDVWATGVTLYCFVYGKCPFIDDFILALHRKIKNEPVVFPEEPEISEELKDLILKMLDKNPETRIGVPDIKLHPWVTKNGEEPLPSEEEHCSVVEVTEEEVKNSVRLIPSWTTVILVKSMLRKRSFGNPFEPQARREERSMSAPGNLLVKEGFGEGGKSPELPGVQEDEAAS
Sequence of UniProt P50750 (whole entry, looked up): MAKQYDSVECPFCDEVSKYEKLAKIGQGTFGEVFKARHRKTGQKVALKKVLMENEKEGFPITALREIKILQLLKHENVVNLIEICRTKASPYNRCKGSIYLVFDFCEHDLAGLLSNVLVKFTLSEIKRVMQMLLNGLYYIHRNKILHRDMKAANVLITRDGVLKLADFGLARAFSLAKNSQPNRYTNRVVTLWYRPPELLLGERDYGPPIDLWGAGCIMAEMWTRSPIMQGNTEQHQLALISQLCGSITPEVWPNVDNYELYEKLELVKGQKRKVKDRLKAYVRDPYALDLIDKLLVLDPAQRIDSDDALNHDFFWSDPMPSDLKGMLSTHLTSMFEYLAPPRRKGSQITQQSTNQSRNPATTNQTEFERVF

Block 1
Compound: CC(C)N(CCC(=O)c1ccc2ccccc2c1)Cc1ccccc1
Observed: enzyme activity
Action: inhibitor
Concentration: 0.5 µM
Baseline: control
target | remaining activity [%]
Cyclin-dependent kinase 2, with cyclin E (CDK2, Homo sapiens, UniProt P24941) | 89.2
CAMKK1 (Homo sapiens, UniProt Q8N5S9) | 104
TYRO3 (Homo sapiens, UniProt Q06418) | 98.9
PAK1 (Homo sapiens, UniProt Q13153) | 98.3
PRKCQ (Homo sapiens, UniProt Q04759) | 122
CLK2 (Homo sapiens, UniProt P49760) | 96.3
SIK2 (Homo sapiens, UniProt Q9H0K1) | 103
CSNK1E (Homo sapiens, UniProt P49674) | 96.1
SGK2 (Homo sapiens, UniProt Q9HBY8) | 101
JAK1 (Homo sapiens, UniProt P23458) | 112
MAP3K20 (Homo sapiens, UniProt Q9NYL2) | 90.5
CSNK1D (Homo sapiens, UniProt P48730) | 97.6
EPHA6 (Homo sapiens, UniProt Q9UF33) | 93.3
MUSK (Homo sapiens, UniProt O15146) | 112
RPS6KA3 (Homo sapiens, UniProt P51812) | 95.1
CAMK1 (Homo sapiens, UniProt Q14012) | 104
IGF1R (Homo sapiens, UniProt P08069) | 107
CLK1 (Homo sapiens, UniProt P49759) | 109
SRPK1 (Homo sapiens, UniProt Q96SB4) | 103
TEC (Homo sapiens, UniProt P42680) | 115
PAK6 (Homo sapiens, UniProt Q9NQU5) | 116
FLT1 (Homo sapiens, UniProt P17948) | 86

Block 2
Organism: Sarcocystis neurona
Observed: parasite growth
Concentration: 10 µM
Time: 96 h
Notes: second screen
Baseline: untreated
SMILES | log2 fold change
CNC(=C[N+](=O)[O-])NCCSCc1csc(CN(C)C)n1 | 0.41
COc1ccc(CC2c3cc(OC)c(OC)cc3CC[N+]2(C)CCC(=O)OCCCCCOC(=O)CC[N+]2(C)CCc3cc(OC)c(OC)cc3C2Cc2ccc(OC)c(OC)c2)cc1OC (stereo not shown) | 0.00192
COc1cc(-c2ccc(=O)[nH]n2)ccc1OC(F)F | 0.55
CCN(CC)CCOc1ccc(C(=C(Cl)c2ccccc2)c2ccccc2)cc1 | 0.13
NC(=O)N1c2ccccc2C=Cc2ccccc21 | 0.48
COC(=O)CCc1ccc(OCC(O)CNC(C)C)cc1 (stereo not shown) | 0.34
CN(C)[C@@H]1C(O)=C(C(N)=O)C(=O)[C@@]2(O)C(O)=C3C(=O)c4c(O)ccc(Cl)c4[C@@H](O)[C@H]3C[C@@H]12 | 0.0324
CCCOc1ccc(C(=O)OCCN(CC)CC)cc1N | 0.36
CCOC(=O)[C@H](CCc1ccccc1)N[C@@H](C)C(=O)N1Cc2ccccc2C[C@H]1C(=O)O | 0.45
CCCc1c(OCCCCc2nnn[nH]2)ccc(C(C)=O)c1O | 0.27
Cc1ncc([N+](=O)[O-])n1CCO | 0.24
CC(C)(C)NC(=O)[C@@H]1C[C@@H]2CCCC[C@@H]2CN1C[C@@H](O)[C@H](Cc1ccccc1)NC(=O)[C@H](CC(N)=O)NC(=O)c1ccc2ccccc2n1 | -0.18

Block 3
Cell line: HaCaT
Concentration: 100 µM
Time: 36 h
SMILES | viability [%]
COCCCC/C(=N\OCCN)c1ccc(C(F)(F)F)cc1 | 4.94
O=C(CS(=O)(=O)Cc1ccccc1)N1CCOCC1 | 100
Cc1ncc([N+](=O)[O-])n1C | 80.3
CC(C)NCC(O)c1cc(O)cc(O)c1 (stereo not shown) | 79.6
COc1ccc([C@@H]2Sc3ccccc3N(CCN(C)C)C(=O)[C@@H]2OC(C)=O)cc1 | 40.7
Nc1c2ccccc2nc2ccccc12 | 4.48
Cc1nc2c([nH]1)-c1ccccc1N(C(=O)c1ccc(NC(=O)c3ccccc3-c3ccccc3)cc1)CC2 | 14

Block 4
SMILES: O=C(Nc1cnc(Oc2ccc(F)cc2)nc1)N1CCc2ncccc2[C@@H]1c1ccc(F)cc1
Observed: cell-free assay
Method: competition with immobilised ligand
Concentration: 1 µM
target | remaining binding [%]
ANKK1 (Homo sapiens, UniProt Q8NFD2) | 100
DAPK2 (Homo sapiens, UniProt Q9UIK4) | 91
PIK3CA (Homo sapiens, UniProt P42336, H1047L) | 92
PTK2 (Homo sapiens, UniProt Q05397) | 100
SRPK3 (Homo sapiens, UniProt Q9UPE1) | 100
FLT3 (Homo sapiens, UniProt P36888, N841I) | 88
PRKACB (Homo sapiens, UniProt P22694) | 85
FLT4 (Homo sapiens, UniProt P35916) | 96
PIP5K1A (Homo sapiens, UniProt Q99755) | 100
Ribosomal protein S6 kinase alpha-5, C-terminal kinase domain (RPS6KA5, Homo sapiens, UniProt O75582) | 74
BRAF (Homo sapiens, UniProt P15056) | 74
CDK9 (Homo sapiens, UniProt P50750) | 93
EPHB3 (Homo sapiens, UniProt P54753) | 100
FES (Homo sapiens, UniProt P07332) | 100
CDK7 (Homo sapiens, UniProt P50613) | 100
ALK (Homo sapiens, UniProt Q9UM73) | 99
ACVR2B (Homo sapiens, UniProt Q13705) | 85
